Experimental data gathered from unrelated publications.
A part holds a random share of what one study measured. “And” joins repeats or separate records; there may be more than shown.
UniProt O75676, sequence (whole entry, looked up): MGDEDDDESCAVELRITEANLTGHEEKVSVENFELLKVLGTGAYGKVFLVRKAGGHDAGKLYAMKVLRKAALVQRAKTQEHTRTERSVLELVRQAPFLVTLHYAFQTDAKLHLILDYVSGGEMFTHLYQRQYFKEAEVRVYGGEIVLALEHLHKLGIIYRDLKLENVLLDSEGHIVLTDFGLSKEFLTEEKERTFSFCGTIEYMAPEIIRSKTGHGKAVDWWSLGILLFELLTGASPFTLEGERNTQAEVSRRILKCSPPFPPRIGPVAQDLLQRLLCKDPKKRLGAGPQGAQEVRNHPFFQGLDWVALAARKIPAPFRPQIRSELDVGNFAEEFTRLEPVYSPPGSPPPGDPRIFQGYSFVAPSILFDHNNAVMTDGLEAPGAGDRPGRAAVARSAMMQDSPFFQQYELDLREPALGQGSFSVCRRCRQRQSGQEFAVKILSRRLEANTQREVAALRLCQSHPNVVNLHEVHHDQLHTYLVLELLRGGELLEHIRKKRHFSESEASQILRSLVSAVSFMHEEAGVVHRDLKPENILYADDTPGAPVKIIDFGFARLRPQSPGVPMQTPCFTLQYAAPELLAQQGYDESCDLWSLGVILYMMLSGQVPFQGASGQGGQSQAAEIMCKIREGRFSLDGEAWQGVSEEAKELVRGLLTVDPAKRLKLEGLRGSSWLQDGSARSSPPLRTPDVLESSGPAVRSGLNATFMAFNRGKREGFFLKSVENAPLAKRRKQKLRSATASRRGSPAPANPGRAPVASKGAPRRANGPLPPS
UniProt P04629, sequence (whole entry, looked up): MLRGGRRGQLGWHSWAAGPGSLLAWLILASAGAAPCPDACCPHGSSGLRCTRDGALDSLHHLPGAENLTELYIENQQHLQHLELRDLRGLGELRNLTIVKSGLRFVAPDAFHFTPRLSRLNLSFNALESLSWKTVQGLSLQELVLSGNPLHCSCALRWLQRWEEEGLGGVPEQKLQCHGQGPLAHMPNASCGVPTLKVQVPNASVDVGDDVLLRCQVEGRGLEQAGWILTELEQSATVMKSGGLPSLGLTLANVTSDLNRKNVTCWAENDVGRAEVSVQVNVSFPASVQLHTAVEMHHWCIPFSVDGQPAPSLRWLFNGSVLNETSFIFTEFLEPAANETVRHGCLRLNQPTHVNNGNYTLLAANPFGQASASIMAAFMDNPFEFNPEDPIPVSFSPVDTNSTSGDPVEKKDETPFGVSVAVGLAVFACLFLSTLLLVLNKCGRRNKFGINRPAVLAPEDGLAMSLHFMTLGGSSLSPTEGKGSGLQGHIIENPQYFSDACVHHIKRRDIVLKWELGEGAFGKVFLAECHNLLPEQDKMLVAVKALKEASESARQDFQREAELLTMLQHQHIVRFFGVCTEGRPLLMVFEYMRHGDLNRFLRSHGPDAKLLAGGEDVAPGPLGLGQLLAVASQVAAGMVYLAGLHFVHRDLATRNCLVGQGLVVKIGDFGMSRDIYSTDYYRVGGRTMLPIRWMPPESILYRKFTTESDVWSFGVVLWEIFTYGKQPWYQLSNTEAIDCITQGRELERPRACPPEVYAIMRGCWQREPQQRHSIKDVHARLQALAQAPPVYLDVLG
UniProt Q14680, sequence (whole entry, looked up): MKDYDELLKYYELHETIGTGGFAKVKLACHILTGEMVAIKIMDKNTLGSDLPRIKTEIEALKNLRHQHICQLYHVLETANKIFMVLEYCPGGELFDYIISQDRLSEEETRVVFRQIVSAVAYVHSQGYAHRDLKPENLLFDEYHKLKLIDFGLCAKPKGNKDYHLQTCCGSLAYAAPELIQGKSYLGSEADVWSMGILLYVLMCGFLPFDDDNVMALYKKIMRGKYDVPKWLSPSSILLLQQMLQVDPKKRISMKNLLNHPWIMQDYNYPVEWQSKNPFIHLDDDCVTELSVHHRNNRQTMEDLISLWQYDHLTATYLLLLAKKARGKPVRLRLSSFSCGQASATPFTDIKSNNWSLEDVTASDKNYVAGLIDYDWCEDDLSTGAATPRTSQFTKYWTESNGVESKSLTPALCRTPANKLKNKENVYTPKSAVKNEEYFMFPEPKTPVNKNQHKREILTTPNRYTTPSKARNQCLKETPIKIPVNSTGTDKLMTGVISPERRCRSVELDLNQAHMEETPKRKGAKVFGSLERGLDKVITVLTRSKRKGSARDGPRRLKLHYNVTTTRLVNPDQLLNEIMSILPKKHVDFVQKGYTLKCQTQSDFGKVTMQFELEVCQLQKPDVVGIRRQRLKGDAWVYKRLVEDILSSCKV
UniProt Q14289, sequence (whole entry, looked up): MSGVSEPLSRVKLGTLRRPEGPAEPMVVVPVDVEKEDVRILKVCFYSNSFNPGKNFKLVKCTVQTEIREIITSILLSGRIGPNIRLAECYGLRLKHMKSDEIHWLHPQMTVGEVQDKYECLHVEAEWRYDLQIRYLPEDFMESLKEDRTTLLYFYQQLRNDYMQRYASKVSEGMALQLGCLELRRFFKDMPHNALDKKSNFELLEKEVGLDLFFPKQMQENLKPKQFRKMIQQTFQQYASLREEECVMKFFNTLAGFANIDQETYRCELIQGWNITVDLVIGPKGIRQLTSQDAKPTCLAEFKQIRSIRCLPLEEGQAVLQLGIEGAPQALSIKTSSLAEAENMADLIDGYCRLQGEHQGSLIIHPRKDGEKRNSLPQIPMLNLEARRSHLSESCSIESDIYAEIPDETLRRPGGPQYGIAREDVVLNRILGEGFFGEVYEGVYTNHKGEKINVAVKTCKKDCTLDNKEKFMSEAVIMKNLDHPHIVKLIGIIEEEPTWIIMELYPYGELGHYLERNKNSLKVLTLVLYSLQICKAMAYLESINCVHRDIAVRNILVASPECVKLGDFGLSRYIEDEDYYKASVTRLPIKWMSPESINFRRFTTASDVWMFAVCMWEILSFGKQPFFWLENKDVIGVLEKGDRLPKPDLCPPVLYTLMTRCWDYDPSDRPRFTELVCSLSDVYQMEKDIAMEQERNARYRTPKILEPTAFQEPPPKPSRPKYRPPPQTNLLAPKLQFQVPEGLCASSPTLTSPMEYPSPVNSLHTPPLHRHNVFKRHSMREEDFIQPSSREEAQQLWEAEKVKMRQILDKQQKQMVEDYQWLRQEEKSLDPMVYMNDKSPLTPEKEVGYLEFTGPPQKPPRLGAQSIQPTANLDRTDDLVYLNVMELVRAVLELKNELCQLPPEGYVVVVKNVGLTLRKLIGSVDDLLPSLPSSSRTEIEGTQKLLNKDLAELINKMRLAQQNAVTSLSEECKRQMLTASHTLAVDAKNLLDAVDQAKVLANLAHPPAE
UniProt Q9UPE1, sequence (whole entry, looked up): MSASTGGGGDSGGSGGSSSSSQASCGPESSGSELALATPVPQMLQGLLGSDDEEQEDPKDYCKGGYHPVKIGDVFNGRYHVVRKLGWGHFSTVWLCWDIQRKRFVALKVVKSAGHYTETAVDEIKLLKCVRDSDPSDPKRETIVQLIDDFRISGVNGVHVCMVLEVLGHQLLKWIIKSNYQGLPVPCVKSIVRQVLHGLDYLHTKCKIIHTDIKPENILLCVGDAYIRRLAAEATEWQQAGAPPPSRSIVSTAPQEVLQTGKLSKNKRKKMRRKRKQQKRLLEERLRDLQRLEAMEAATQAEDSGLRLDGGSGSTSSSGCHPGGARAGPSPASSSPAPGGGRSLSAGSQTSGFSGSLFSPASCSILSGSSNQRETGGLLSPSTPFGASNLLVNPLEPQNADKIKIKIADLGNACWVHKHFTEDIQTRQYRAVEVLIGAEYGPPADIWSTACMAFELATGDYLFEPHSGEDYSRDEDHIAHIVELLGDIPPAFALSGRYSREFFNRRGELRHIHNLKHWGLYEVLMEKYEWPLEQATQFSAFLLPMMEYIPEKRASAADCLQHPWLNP
UniProt Q13705, sequence (whole entry, looked up): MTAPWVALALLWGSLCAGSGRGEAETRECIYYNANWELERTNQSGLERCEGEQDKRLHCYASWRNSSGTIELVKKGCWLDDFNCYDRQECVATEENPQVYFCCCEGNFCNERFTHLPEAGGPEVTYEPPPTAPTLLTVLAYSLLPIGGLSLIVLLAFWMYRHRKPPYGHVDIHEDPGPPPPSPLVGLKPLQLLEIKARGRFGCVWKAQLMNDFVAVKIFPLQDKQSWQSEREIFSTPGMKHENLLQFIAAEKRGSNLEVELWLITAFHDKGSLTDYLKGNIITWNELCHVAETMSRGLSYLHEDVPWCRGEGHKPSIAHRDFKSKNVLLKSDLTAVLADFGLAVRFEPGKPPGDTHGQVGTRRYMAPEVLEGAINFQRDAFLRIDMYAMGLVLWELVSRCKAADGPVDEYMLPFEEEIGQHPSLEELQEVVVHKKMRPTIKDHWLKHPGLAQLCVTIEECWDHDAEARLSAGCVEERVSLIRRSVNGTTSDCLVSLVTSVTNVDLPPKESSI

Study 1
Structure (SMILES): CCN1/C(=C/C=C2\CCCC(/C=C/C3=[N+](CC)c4ccccc4C3(C)C)=C2NCCCCCCCCN2CCC(Nc3nc4ccccc4n3Cc3ccc(F)cc3)CC2)C(C)(C)c2ccccc21
Cell line: U-87 MG
Concentration: concentration not given
Relative to: DMSO
The “log2 fold change” was -3.31 (refers to: LMNB1 mRNA).
It gave 4.81 for “log2 fold change” (refers to: CCL20 mRNA).
It gave -1.3 for “log2 fold change” (refers to: SEMA7A mRNA).
The “log2 fold change” was 1.08 (refers to: R3HCC1L mRNA).
refers to: PRRT2 mRNA — “log2 fold change”: -1.47.
It gave -0.815 for “log2 fold change” (refers to: CAMK2N2 mRNA).
refers to: NEFM mRNA — “log2 fold change”: -3.91.
For refers to: ACP3 mRNA: “log2 fold change” read -1.92.
The “log2 fold change” was 1.15 (refers to: HBP1 mRNA).
For refers to: PLCXD1 mRNA: “log2 fold change” read -1.32.
It gave -2.17 for “log2 fold change” (refers to: PLK1 mRNA).
refers to: HAPLN3 mRNA — “log2 fold change”: -1.58.
The “log2 fold change” was 1.34 (refers to: GARS1 mRNA).
It gave 1.96 for “log2 fold change” (refers to: PPIL6 mRNA).
It gave -1.32 for “log2 fold change” (refers to: TMEM164 mRNA).
refers to: FBXO42 mRNA — “log2 fold change”: 1.06.

Study 2
SMILES: COc1cc(-c2nc3ccc(C(=O)NCCCN(C)C)cc3n2C2CCC2)cc(OC)c1OC
Observed: binding
Technique: competition with immobilised ligand
Concentration: 1 µM
For EGFR (Homo sapiens, UniProt P00533, del746-750): remaining binding read 99%.
For EPHB2 (Homo sapiens, UniProt P29323): remaining binding read 97%.
It gave 63% for remaining binding (PIK3CA (Homo sapiens, UniProt P42336, H1047L)).
The remaining binding was 6.2% (BMPR1B (Homo sapiens, UniProt O00238)).
It gave 82% for remaining binding (Ribosomal protein S6 kinase alpha-2, C-terminal kinase domain (RPS6KA2, Homo sapiens, UniProt Q15349)).
For PTK2B (Homo sapiens, UniProt Q14289): remaining binding read 65%.
PNCK (Homo sapiens, UniProt Q6P2M8) — remaining binding: 90%.
For COQ8A (Homo sapiens, UniProt Q8NI60): remaining binding read 88%.
The remaining binding was 55% (ACVR1B (Homo sapiens, UniProt P36896)).
The remaining binding was 100% (STK3 (Homo sapiens, UniProt Q13188)).
DDR2 (Homo sapiens, UniProt Q16832) — remaining binding: 56%.
It gave 84% for remaining binding (MELK (Homo sapiens, UniProt Q14680)).
For FGFR1 (Homo sapiens, UniProt P11362): remaining binding read 58%.
SRPK3 (Homo sapiens, UniProt Q9UPE1) — remaining binding: 100%.
Ribosomal protein S6 kinase alpha-1, N-terminal kinase domain (RPS6KA1, Homo sapiens, UniProt Q15418) — remaining binding: 81%.
For EGFR (Homo sapiens, UniProt P00533, G719S): remaining binding read 93%.
It gave 90% for remaining binding (NTRK1 (Homo sapiens, UniProt P04629)).
It gave 76% for remaining binding (NEK3 (Homo sapiens, UniProt P51956)).
For Cyclin-dependent kinase 4, with cyclin D1 (CDK4, Homo sapiens, UniProt P11802): remaining binding read 85%.
For MYLK (Homo sapiens, UniProt Q15746): remaining binding read 100%.
It gave 100% for remaining binding (ACVR2B (Homo sapiens, UniProt Q13705)).
MAPK6 (Homo sapiens, UniProt Q16659) — remaining binding: 84%.
AKT2 (Homo sapiens, UniProt P31751) — remaining binding: 97%.
The remaining binding was 56% (STK4 (Homo sapiens, UniProt Q13043)).
It gave 99% for remaining binding (Ribosomal protein S6 kinase alpha-4, C-terminal kinase domain (RPS6KA4, Homo sapiens, UniProt O75676)).

Study 3
Target: E3 ubiquitin-protein ligase NEDD4, HECT domain (Homo sapiens, UniProt P46934)
Observed: enzyme activity
Action: inhibitor
Technique: Ub-TR-FRET
Sample: HECT domain
Concentration: 0.01524 µM
Direction: higher = more chain formation
Construct (P46934 938-1319, limits assumed): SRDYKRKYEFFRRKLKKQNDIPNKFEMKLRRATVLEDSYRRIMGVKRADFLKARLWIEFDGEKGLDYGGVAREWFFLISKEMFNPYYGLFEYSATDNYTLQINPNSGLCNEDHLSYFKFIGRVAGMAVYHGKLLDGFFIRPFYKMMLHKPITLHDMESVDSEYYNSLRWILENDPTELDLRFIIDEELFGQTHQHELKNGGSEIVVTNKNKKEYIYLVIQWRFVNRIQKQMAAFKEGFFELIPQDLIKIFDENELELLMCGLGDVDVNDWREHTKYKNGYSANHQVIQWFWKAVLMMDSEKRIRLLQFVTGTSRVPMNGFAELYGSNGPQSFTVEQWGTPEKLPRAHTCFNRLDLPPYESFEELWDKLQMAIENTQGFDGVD
`CCOC(=O)/C=C/CN(CC)CCCCN1c2ccccc2CCc2ccc(Cl)cc21.O=C(O)/C=C\C(=O)O`: “ubiquitin chain formation AUC” 95300 a.u. and 103000 a.u. and 91400 a.u. and 95200 a.u. and 104000 a.u. and 102000 a.u.
Under “ubiquitin chain formation AUC”, `CCOC(=O)/C=C/CNCCCCN1c2cc(Cl)ccc2CCc2cnn(C)c21.O=C(O)/C=C\C(=O)O` is recorded as 71300 a.u. and 72900 a.u. and 67200 a.u. and 67600 a.u. and 70800 a.u. and 68700 a.u.
`CNC(=O)/C=C/CNCCCN1c2ccccc2CCc2ccc(Cl)cc21.Cl` — result for “ubiquitin chain formation AUC”: 130000 a.u. and 132000 a.u. and 134000 a.u.
For `CNCCCN1c2ccccc2CCc2ccc(Cl)cc21`, “ubiquitin chain formation AUC” read 144000 a.u. and 146000 a.u. and 143000 a.u.
Under “ubiquitin chain formation AUC”, `COC(=O)CCCNCCCN1c2ccccc2CCc2ccc(Cl)cc21.COC(=O)CCCNCCCN1c2ccccc2CCc2ccc(Cl)cc21.O=C(O)/C=C/C(=O)O` is recorded as 133000 a.u. and 132000 a.u.
Under “ubiquitin chain formation AUC”, `CNC(=O)/C=C/CNCCCCN1c2ccccc2CCc2ccc(Cl)cc21.Cl` is recorded as 71500 a.u. and 89600 a.u. and 86600 a.u. and 88100 a.u. and 70400 a.u. and 70100 a.u.
`CCOC(=O)/C=C/CNCCCCN1c2ccccc2C(=O)N(C)c2ccc(Cl)cc21.O=C(O)/C=C\C(=O)O`: “ubiquitin chain formation AUC” 94200 a.u. and 92600 a.u. and 99000 a.u.
Under “ubiquitin chain formation AUC”, `CCONC(=O)/C=C/CNCCCCN1c2ccccc2CCc2ccc(Cl)cc21.O=C(O)/C=C\C(=O)O` is recorded as 37300 a.u. and 26500 a.u. and 27100 a.u. and 37800 a.u. and 37500 a.u.
Under “ubiquitin chain formation AUC”, `CCOC(=O)/C=C/CN(CCCCN1c2ccccc2CCc2ccc(Cl)cc21)C(C)C.O=C(O)/C=C\C(=O)O` is recorded as 85500 a.u. and 85300 a.u. and 84600 a.u. and 85800 a.u. and 86300 a.u.
Under “ubiquitin chain formation AUC”, `Cl.NC(=O)/C=C/CNCCCN1c2ccccc2CCc2ccc(Cl)cc21` is recorded as 139000 a.u.
`N#C/C=C/CNCCCCN1c2ccccc2CCc2ccc(Cl)cc21.O=C(O)/C=C\C(=O)O`: “ubiquitin chain formation AUC” 93000 a.u. and 92100 a.u. and 100000 a.u. and 88300 a.u. and 99600 a.u. and 101000 a.u.
`CCOC(=O)/C=C/CNCCCCN1c2ccccc2COc2ccc(Cl)cc21.O=C(O)/C=C\C(=O)O`: “ubiquitin chain formation AUC” 92500 a.u. and 91000 a.u. and 92600 a.u.

Study 4
Compound: Cc1ccc(O)c(C)c1-c1cnc2[nH]c(-c3cnc(N)nc3)cc2c1C#N
PKMYT1: Membrane-associated tyrosine- and threonine-specific cdc2-inhibitory kinase (PKMYT1, Homo sapiens, UniProt Q99640)
UniProt Q99640, sequence (whole entry, looked up): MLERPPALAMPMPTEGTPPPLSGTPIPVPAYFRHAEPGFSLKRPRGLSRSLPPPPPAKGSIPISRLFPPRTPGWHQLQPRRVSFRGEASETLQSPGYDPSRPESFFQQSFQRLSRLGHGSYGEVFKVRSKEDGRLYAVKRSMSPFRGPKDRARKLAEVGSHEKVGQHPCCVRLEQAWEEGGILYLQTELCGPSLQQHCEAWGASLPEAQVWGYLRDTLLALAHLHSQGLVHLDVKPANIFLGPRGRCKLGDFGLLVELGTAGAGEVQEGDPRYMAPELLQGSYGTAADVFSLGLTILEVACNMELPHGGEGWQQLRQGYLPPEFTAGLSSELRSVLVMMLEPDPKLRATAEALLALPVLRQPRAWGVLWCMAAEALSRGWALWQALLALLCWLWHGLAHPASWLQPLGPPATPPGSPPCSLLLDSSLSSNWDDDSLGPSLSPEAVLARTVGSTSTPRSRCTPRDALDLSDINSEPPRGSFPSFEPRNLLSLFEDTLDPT
It gave 97.6% for inhibition (PKMYT1; cell-free assay, TR-FRET; 12.35 nM).
For KLE; cell proliferation; 4.572 nM: inhibition read -1.24%.
The inhibition was 3.58% (U-251 MG; cell growth; 1.524 nM).
HCC1569; cell proliferation; 10000 nM — inhibition: 97.9%.
PKMYT1; 0.004115 µM — inhibition: 70.1%.
The inhibition was 0.54% (HuCCT-1; cell proliferation; 41.15 nM).
The inhibition was 99.1% (PKMYT1; cell-free assay, TR-FRET; 1 µM).
It gave -17.9% for inhibition (NCI-H1648; cell proliferation; 86.13 nM).
It gave 8.79% for inhibition (MKN-1; cell proliferation; 123.5 nM).
For PKMYT1; 0.001372 µM: inhibition read 22.2%.
It gave 97.2% for inhibition (HCC1806; cell proliferation; 3333.33 nM).
HuCCT-1; cell proliferation; 1111.11 nM — inhibition: 78.3%.
For HCC1569; automated capillary immunoblot, refers to: CDK1 phospho-Thr14; 1000 nM: inhibition read 82.5%.
The inhibition was 99.6% (MKN-1; cell proliferation; 10000 nM).
It gave 17.4% for inhibition (HCC1806; cell proliferation; 41.15 nM).
It gave -5.71% and -3.43% for inhibition (LN-229; cell proliferation; 4.572 nM).
It gave 3.56% for inhibition (HCC1806; cell proliferation; 13.72 nM).
For HCC1569; automated capillary immunoblot, refers to: CDK1 phospho-Thr14; 111.11 nM: inhibition read 52.2%.
It gave 2.42% and -0.318% for inhibition (LN-229; cell proliferation; 0.5081 nM).
The inhibition was 1.24% (MKN-1; cell proliferation; 41.15 nM).
For HCC1569; cell proliferation; 370.37 nM: inhibition read 54.1%.
The inhibition was 79.6% (KLE; cell proliferation; 30000 nM).

A few entries again (study 4):
PKMYT1; 0.004115 µM — inhibition: 70.1%.
The inhibition was 0.54% (HuCCT-1; cell proliferation; 41.15 nM).
The inhibition was 99.1% (PKMYT1; cell-free assay, TR-FRET; 1 µM).
It gave -17.9% for inhibition (NCI-H1648; cell proliferation; 86.13 nM).
It gave 8.79% for inhibition (MKN-1; cell proliferation; 123.5 nM).
For PKMYT1; 0.001372 µM: inhibition read 22.2%.
It gave 97.2% for inhibition (HCC1806; cell proliferation; 3333.33 nM).
HuCCT-1; cell proliferation; 1111.11 nM — inhibition: 78.3%.
For HCC1569; automated capillary immunoblot, refers to: CDK1 phospho-Thr14; 1000 nM: inhibition read 82.5%.
The inhibition was 99.6% (MKN-1; cell proliferation; 10000 nM).
